Experimental data collected from several papers.
Parts stem from different laboratories: compare values within a part only.

Study 1 — method: protein-binding microarray; form: double-stranded DNA, one strand shown; medium: in vitro; concentration: not given; reading: higher = stronger binding; endpoint: E-score
Target: Hepatocyte nuclear factor 3-beta, forkhead domain (FOXA2, Homo sapiens, UniProt Q9Y261, residues 142-269)
Notes: k-mer, scored over probes, only values ≥0.25
Target sequence (chain): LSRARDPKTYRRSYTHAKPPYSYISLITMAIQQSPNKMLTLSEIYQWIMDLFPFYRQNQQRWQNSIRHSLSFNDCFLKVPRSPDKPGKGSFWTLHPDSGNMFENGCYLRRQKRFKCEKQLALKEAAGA
GTTTACTA: 0.328
AATCAATA: 0.351
ACAATATC: 0.265
GCCCCTCC: 0.276
CGTATTTA: 0.278
CAACAATC: 0.353
ACATACTG: 0.274
GTTATACA: 0.382
CAATATTA: 0.277
CTATCAAC: 0.27
ACAACAAT: 0.363
ATTTGTAG: 0.254
ATTGTTTA: 0.349
TAACATTA: 0.31
ACACGTAA: 0.307
GTCAACTA: 0.258
ATGGTGTA: 0.302
TGAGTAAA: 0.269
GTCTGTTA: 0.346
ATATCCGA: 0.252
TACGTACA: 0.258
ATGAACTA: 0.278
ATATACTG: 0.291
GGGACATA: 0.276
AACCATAT: 0.306

Study 2 — method: RNA Bind-n-Seq; form: RNA; medium: in vitro; concentration: 365 nM; relative to: no-protein control; reading: higher = stronger binding; endpoint: RBNS enrichment (R)
Target: RNA binding protein fox-1 homolog 2, RRM domain, GST-SBP tag (RBFOX2, Homo sapiens, UniProt O43251-10, residues 100-194)
Notes: natural RNA segment, single round, ends assumed
Constant ends, left off below: GGGAGUUCUACAGUCCGACGAUC … UGGAAUUCUCGGGUGCCAA
Residues (chain): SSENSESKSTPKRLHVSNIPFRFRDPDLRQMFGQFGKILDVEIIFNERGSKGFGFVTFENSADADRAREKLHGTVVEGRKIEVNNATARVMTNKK
AAUGUAUAUAUGAGUAGUUUGCCAUGAGAUAACACAGUGUAAACAGUAGACACCCAGAAAUCGUGACUUCUGUGUUCUCUCCAUUUGAGUAUUUUGUAAUUUUUUUGAAA: 1.43
AGGCAGGGACCUCAGCUUUGUUAGGAAUAAGGCACAAGAAGUAUUUUCUGUAGCUAUUGUUUCCUCAGUCCUUCAAACUAAAAAAGUACAAAUAAAUAACCUAUGGCCAA: 0.766
UCAUUUGUACCCAGAAUGUAUUAAUAUAUUGCUAUUAGGUUAAUCUGUUAACUGAAUGCUUUGAUCAGCAUUGAGGUGAUGCUCACCUCCGAGGACCUCAGAACUGGUGC: 0.404
UACACCUCAAAUUUGGAAAGUUGCCCCAUCUCUCCCCCCCAACCCAUGCCCCUGCUCACCUCUGCCAGGUCCCAGCUUGACCUACUGGGUCAAGGCCAGCCUCGGUGAUG: 0.29
CCAAUUAUGAGAUAAAAUUUAUACUUUUUACUUUUCUAAAUUAAACACAAGAAAGAAUGCAAAAACAAAAGUGAUUUUUUAAAAAUGAGGUUAAAUCGAUUUUGCAUCAG: 4.61
CCAUUCAGGUUUGCUGUCACAUAUGCAUCAUCUGAAAUCAUUUGAAAUUUUUGUACAAUAAAAUAUCCUGGAUUUGAUCCUGAAGGAAACUAGUAAGAUCAGAUUUUUGG: 0.517
GCAGCUCACAGUACCAGCCAGCUUUAGACCUCCCAGUGCAAAGCCCAGCGCAGCACUAAGCCUUAAGCCACCCAAGGGCUGACACACCAUGCAGAGCUACGAAAUCUGUG: 0.449
UACUUAACCUCAGAAUCGGGCCAGUUCUGUAGAUCCUCAAGAGAAGCUUCAGUGACUGUCCCUUUGAAUUGCCUCCGAUUUCAAAAAUAAAUAAAUAAAUCUACACGUUU: 0.593
AAGGUGACUGGGAAUUGUUACUGUUGUACUUAUUCUAUCUUCCAUUUAUUAUUUAUGUACAAUUUGGUGUUUGUAUUAGCUCUACUACAGUAAAUGACUGUAAAAUUGUC: 0.667
CACGGCACAUUUGGACAUUUCCAGAACUACCAUGAGAUGGUUUAGACGGGAAUUCAUGCAAAUGAGGGGUCAAAAAUGGUAUAGUGACCCCGUCCACGUCCUCCAAGCUC: 0.554
CACGGAGGGUCCAGACUGUCCACUCGGGGGUGGAGUGAGACUGACUGCAAGCCCCACCCUCCUUGAGACUGGAGCUGGCGUCUGCAUACGAGAGACUUGGUUGAACUUGG: 1.09
UGUGGUCAGCCUUACCCCUUCUCCGAGAACAAGCAGAGCGCUCUAUUUUUAACUAUGUUACACUCGUAAAUGACAAAACCAAAUCUUCUAUUAAAAGGCAAAGAUGAUGG: 0.371

Study 3 — method: RNA Bind-n-Seq; form: RNA; medium: in vitro; concentration: not given; relative to: input RNA pool; reading: higher = stronger binding; endpoint: bound/input enrichment
Target: RING finger protein unkempt homolog, zinc fingers 1-6, GST-SBP tag (UNK, Homo sapiens, UniProt Q9C0B0, residues 30-357)
Notes: RNA with constant flanks, human and mouse sites, ends assumed
Constant ends, left off below: GGGAGUUCUACAGUCCGACGAUC … CAACAGAGGAUUGAGCAUCA
Residues (chain): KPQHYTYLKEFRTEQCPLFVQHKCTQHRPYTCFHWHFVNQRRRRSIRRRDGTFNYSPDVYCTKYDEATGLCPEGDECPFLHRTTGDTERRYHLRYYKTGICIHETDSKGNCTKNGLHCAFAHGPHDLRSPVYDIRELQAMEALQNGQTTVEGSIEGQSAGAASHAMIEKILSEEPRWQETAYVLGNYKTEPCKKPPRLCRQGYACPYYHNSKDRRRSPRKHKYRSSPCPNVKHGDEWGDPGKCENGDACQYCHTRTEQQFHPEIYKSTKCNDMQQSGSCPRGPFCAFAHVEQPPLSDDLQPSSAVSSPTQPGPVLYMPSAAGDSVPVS
UAAAAAAUCAAGCUAUGUACUUAUUUUCUAUAUUUGGGUGUGUUAAAUUGAGGAUUAGAAAAAUCCACAUAAUCACUGAUAAAGCAUUGAAACAGAAUAACCCAAGGGUAGUGUACCGAU: 0.241 ratio
AAAGAAAACCUGGAGACUUCUCCUUUCAUAACUCCCGGAAAGCCUUGGGAAGAGGCCCGUAGUUUUAUUAUGAAUGAGGAUUUCUACCAGUGGCUGGAGGAAUCUGUAUACAUGGAUAUU: 2.06 ratio
AAGGAAGAGAAUAAAACCUCAAAUUCAACCUCUUCAGUAAUUUCUCUUUCUGUGGCACCAACAUUCAGCCCAAACCUGACUCUGGAGCCCACCUAUGUGACUACUGUUAAUUCUUCACAC: 0.215 ratio
AAAAGGAAAAGGAAAUGCUUUUGGUUGGGCAUGGAUGGGCUGGAGGCUGCCGAGGGGUCCAGUACUGGAAGCUCAGAGGACAGCUCAGAGGAUGACAGUGAGGAUGCUCCUGGGACUUCG: 0.124 ratio
CGGCGGGCUGUGGGGCCGUUUGCCUUUUCCUUACCUGGGCUGGAUAAACUCAUGGACUUGGCAGCUCAGGCUUGAGAAAAACACAAACUCAGAAGAAAGAUGGCGUUCGUUGCAACCCAG: 0.0942 ratio
AAAGAGCAUUGGAAUCCGGCCAUUGUGGCAUUGGUGUACAACGUGUUGAAGGCAUUUAUGGAAAUGAACAGCACUAUGUUUGAUGAGCUGACAGCCACAUACAAGUCAGAUCGUCAGCGU: 0.134 ratio
UACUUAAAUGAAAUAAAACCUCCCAUCAUACACUAUGACCUCAAACCAGGUAAUAUUCUUUUAGUAAAUGGUACAGCGUGUGGAGAGAUAAAAAUUACAGAUUUUGGUCUUUCGAAGAUC: 0.489 ratio
GGUGUACGCGGCGAUUUCAACUCUCGAAUGGGAGGAGGCAGUAUAGAGGUAUCUGUGCCUAGGUUUGCUGUGGGGAUUGUAAUAGGAAGAAACGGGGAAAUGAUCAAAAAGAUCCAGAAU: 1.51 ratio
ACGCAGUUAAUCCAGUUGAGUACCUUACUCAGGUUACUGGACAGUGGAUUUUGUAGCUAUUUAGAAUCCCAGGACUCUGGAUAUCUAUAUUUUUGCUUCAGAUGGCUUUUAAUCAGAUUU: 0.201 ratio
UUGGAUUUGAUGCCUUGGGAGUCAGACCUAUGGAGCCCCGGCAGCCACUUCUGCUCAGACAUGAAGGCAGAGCCCCAGCCUCUUUCUCCGGCUUCCUCCAGUUGCUCCAUCUCCUCUCCU: 0.19 ratio
UUGCUUUGCUGGUUUCAUAUUUAUUUGUUGUAUUUAAAAAAUACAUUGUUGUAAGAGUGAUUUUUUCAAUAUAUUUUAUUCCUGGGGGGGAUCAUGCUACACUCUCAAAAGAAAAUUAAG: 0.813 ratio

Study 4 — method: protein-binding microarray; form: double-stranded DNA, one strand shown; medium: in vitro; concentration: 940 nM top; notes: 60-bp whole probe; with: salmon DNA 0.4 mg/ml; relative to: random background probes; reading: higher = stronger binding; endpoint: fitted relative affinity; constant ends, left off below: GCCTAGCAC … GTCTTGATTCGCTTGACGCTGCTG
Target: Interferon regulatory factor 5, full length, phosphomimetic (IRF5, Homo sapiens, UniProt Q13568-2, residues 1-514, S451D/S453D/S456D/S462D)
GGTTGTTTCTAATATTCTGCTGTGCTA: 1.15 z-score
CTTGCTTTCCTACTGAAATAGTGCTAG: 0.0151 z-score
GACGGTTTCGACTTACGGGACGTGCTA: 7.91 z-score
GACGGTCTCCTACAGCTGACGTGCTAG: -0.0366 z-score
TTAGCTCTCGGTCTCGGTTAGTGCTAG: 5.86 z-score
TGGCACCTCTAGACTCTAAATGTGCTA: -0.284 z-score
GACGGTTTCGGTTACGGGACGTGCTAG: 13.8 z-score
TACTGGACTGGGGTTTCCCGGTGCTAG: -0.445 z-score
TTCGGTTTCGACTTTCGGTTAGTGCTA: 9.17 z-score
TTAGAACTGAGGACTGGATTAGTGCTA: -0.344 z-score
TCATATATGTATATATGACTGTGCTAG: -0.263 z-score
TCACTTTCCATTTCTGTTACTGTGCTA: 2.73 z-score
TTAGGTGTCGGGACTGGGTTAGTGCTA: -0.204 z-score
TTAGGTATCGGGTATCGCTTAGTGCTA: 5.95 z-score
GACGGTTTCGGGACTAGGGACGTGCTA: 6.34 z-score
CCCAGTCTCATATTTATTAGGTGCTAG: 2.84 z-score
ACCCATCTCCAGTAGCCTAGCGTGCTA: 0.715 z-score
TTAGGTCTCCTTAACCTTTAGTGCTAG: 0.081 z-score
GGGAACTTAAACCTCTAAAGGTGCTAG: -0.0995 z-score
GACGATATCGGGTAACGAGACGTGCTA: -0.052 z-score
CTTTCTCTGCTCTTTTCAACAGTGCTA: 2.71 z-score

Study 5 — method: universal PBM; form: double-stranded DNA, one strand shown; medium: in vitro; concentration: not given; reading: higher = stronger binding; endpoint: E-score
Target: Sal-like protein 4, full length isoform B (SALL4, Homo sapiens, UniProt Q9UJQ4-2, residues 1-616)
Notes: 8-mer, flanks averaged, mean of replicates
Construct (chain): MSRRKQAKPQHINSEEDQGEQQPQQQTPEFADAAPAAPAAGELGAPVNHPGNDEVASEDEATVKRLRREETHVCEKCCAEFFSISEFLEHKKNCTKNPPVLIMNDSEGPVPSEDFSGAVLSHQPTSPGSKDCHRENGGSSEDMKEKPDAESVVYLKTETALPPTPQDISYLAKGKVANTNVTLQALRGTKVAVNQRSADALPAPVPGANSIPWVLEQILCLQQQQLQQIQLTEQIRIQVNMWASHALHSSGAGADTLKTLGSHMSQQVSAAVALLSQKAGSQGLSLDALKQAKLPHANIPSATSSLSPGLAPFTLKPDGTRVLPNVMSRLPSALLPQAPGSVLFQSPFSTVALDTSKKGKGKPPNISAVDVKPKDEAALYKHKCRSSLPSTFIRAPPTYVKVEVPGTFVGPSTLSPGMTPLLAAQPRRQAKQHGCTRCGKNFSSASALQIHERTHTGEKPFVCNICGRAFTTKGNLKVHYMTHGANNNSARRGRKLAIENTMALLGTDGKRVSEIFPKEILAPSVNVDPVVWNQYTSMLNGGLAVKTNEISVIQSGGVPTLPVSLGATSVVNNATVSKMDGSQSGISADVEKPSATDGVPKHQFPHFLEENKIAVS
CTGTGCTA: -0.0602
CAGGCTTC: -0.204
ATAGCGAC: 0.00934
CACGCTCG: -0.239
GCAGAAGA: -0.0723
ACATCGAT: 0.123
GCTGGTAA: -0.00988
AGCGACGA: -0.13
AACGTAGG: -0.162
GGATCAAA: 0.109
GAAGCTCC: -0.287
AGCAAACC: 0.0678
CTTGTGTC: -0.131
AACCGCTA: -0.0255
AGTGATGA: 0.0744
AGAGTCGG: -0.162
CTTAATAA: 0.379
ACAGTCGC: -0.186
AAGGATCC: -0.194
ACAGTAAA: 0.228
GGTCCTAA: 0.0241
CACTCGCG: -0.181
CTACGAGA: -0.0682
ACATGTCC: -0.014
ATCGGTTC: -0.171

Excerpt of the above (study 5):
CTTGTGTC: -0.131
AACCGCTA: -0.0255
AGTGATGA: 0.0744
AGAGTCGG: -0.162
CTTAATAA: 0.379
ACAGTCGC: -0.186
AAGGATCC: -0.194
ACAGTAAA: 0.228
